# Results from different studies.
# Sequence of UniProt Q6UWW8 (whole entry, looked up): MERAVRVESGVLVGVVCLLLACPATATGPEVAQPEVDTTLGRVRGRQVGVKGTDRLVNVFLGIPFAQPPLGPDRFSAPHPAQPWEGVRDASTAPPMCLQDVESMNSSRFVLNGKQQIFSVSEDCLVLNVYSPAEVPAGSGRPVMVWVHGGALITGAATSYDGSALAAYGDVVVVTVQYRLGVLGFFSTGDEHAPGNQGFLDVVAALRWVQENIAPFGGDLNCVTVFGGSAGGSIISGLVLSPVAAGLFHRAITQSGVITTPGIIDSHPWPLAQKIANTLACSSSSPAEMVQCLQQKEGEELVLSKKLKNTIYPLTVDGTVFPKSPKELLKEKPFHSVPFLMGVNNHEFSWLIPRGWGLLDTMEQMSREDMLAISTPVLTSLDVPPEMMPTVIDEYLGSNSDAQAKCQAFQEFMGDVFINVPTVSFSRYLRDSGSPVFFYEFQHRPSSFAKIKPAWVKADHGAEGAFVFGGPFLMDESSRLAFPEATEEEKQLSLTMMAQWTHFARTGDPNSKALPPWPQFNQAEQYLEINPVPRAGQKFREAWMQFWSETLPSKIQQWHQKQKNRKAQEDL
# Sequence of UniProt Q13555 (whole entry, looked up): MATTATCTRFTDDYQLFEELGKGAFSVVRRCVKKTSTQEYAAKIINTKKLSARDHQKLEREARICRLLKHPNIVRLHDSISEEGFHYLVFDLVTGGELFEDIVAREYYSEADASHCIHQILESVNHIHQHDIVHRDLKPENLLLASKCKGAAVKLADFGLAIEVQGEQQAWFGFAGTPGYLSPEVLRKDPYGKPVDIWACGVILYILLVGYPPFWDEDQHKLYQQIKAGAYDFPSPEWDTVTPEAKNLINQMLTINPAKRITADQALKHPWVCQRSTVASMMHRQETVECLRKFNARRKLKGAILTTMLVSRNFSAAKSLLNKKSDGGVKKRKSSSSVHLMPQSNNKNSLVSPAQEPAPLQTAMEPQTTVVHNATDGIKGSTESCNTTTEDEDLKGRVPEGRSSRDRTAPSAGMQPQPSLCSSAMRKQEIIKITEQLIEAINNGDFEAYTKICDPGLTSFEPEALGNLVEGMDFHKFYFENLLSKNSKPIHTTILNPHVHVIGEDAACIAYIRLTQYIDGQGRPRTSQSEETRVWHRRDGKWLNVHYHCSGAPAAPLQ
# Sequence of UniProt Q9HC35 (whole entry, looked up): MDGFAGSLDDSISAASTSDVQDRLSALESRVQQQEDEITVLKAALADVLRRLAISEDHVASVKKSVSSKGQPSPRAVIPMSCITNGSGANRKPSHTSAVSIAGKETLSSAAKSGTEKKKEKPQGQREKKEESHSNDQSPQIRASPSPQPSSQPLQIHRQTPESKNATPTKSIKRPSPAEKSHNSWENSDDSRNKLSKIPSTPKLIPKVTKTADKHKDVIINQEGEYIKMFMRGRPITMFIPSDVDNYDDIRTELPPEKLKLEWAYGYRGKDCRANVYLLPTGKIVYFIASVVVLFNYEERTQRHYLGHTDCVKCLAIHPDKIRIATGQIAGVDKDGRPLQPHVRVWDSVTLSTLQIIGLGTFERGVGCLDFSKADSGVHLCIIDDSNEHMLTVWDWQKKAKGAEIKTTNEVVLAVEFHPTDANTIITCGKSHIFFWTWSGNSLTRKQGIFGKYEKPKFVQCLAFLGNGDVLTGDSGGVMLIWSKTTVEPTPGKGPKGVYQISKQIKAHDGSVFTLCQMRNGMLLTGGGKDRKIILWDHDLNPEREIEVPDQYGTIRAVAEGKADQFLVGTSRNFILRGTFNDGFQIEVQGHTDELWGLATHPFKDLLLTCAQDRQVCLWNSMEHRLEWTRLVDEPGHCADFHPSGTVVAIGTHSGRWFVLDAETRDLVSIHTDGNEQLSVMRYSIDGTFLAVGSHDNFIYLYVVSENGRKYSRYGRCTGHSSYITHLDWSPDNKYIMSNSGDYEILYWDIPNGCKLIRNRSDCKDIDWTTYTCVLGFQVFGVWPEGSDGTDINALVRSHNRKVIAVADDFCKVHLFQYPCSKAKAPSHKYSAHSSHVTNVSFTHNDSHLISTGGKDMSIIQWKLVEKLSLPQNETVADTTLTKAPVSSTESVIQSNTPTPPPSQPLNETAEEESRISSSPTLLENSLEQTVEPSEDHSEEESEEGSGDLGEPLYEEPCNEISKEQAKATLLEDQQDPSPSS
# Sequence of UniProt O15111 (whole entry, looked up): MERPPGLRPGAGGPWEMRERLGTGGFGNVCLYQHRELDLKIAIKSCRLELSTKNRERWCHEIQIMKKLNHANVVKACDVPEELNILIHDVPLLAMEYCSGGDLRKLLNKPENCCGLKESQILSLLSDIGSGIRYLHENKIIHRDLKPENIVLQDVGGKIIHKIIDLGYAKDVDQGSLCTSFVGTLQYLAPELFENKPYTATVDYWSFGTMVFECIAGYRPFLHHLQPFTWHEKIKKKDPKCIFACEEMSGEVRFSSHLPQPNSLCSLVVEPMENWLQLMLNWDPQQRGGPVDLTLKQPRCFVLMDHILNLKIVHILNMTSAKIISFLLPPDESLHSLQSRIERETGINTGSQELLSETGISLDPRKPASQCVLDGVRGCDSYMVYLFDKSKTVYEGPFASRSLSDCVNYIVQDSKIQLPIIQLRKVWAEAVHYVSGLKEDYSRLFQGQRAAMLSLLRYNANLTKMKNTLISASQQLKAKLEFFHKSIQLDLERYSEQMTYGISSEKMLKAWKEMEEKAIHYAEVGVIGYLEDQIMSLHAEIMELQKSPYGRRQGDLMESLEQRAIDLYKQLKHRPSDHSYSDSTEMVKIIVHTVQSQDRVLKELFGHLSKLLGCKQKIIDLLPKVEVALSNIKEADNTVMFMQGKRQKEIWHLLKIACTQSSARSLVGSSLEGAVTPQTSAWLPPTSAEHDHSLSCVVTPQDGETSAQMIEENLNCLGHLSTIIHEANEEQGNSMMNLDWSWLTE
# Sequence of UniProt Q96SB4 (whole entry, looked up): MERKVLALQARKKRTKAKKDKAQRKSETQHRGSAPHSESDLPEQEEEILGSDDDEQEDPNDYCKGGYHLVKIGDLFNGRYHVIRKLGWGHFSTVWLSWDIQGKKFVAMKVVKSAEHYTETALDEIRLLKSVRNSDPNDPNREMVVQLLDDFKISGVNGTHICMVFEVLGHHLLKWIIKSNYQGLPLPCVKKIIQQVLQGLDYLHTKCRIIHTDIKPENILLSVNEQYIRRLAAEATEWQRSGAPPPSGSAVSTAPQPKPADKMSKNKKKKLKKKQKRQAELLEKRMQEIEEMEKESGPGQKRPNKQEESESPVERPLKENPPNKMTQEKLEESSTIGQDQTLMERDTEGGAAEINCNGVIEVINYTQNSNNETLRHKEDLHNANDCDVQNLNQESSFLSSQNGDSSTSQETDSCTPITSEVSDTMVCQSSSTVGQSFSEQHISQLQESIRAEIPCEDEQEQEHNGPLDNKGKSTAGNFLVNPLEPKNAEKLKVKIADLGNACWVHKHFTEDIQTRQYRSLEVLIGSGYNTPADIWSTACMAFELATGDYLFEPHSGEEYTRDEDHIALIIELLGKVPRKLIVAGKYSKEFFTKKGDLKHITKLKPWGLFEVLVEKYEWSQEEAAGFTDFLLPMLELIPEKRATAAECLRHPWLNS
# Sequence of UniProt Q15722 (whole entry, looked up): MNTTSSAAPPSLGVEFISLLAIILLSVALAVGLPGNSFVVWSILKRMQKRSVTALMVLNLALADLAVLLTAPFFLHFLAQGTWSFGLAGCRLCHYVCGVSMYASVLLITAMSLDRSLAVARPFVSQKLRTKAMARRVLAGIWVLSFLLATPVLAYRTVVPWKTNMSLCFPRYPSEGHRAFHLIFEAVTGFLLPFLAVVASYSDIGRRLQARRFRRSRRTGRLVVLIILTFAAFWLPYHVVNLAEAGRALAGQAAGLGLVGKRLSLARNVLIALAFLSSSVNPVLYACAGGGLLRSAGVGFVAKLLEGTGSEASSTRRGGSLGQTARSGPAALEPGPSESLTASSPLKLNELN
# Sequence of UniProt P43115 (whole entry, looked up): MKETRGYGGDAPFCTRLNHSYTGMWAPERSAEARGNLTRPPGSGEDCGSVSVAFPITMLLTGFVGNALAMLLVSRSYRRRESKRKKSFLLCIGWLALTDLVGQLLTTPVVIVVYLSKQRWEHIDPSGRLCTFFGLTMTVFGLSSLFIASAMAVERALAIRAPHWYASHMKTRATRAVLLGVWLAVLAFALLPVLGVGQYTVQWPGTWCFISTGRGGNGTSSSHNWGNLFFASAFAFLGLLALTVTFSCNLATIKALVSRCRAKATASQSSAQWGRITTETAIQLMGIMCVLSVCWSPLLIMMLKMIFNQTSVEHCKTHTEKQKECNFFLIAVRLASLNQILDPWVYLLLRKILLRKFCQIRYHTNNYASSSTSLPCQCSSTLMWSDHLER
Structure (SMILES),target,assay,test system,setting,how to read,endpoint,value
CCCCCCCCCCCCCCCCCC[N+](C)(C)C.[Br-],"Sodium channel protein type 4 alpha, BTX-activated (Oryctolagus cuniculus, UniProt G1SLL9)",,,,,mean closed time,~500 ms
C[C@H]1CN(c2n[nH]c3nc(N[C@H]4CC[C@H](NS(=O)(=O)CCC(F)(F)F)CC4)ncc23)CCO1,"Echinoderm microtubule-associated protein-like 4 (Homo sapiens, UniProt Q9HC35)","Kinobeads competition, refers to: EML4",,"0.032 µM, unit not given",reference: vehicle,remaining binding,1.09
O=C(c1ccc(Cl)cc1)N1CCN2C(=O)N(OC(=O)N3CCOc4ccccc43)C(=O)C2C1 (centres unmarked),"Carboxylesterase 3 (CES3, Homo sapiens, UniProt Q6UWW8)","enzyme activity, inhibitor, MS-based ABPP",SW-620 in situ,"10 µM, 2 h, 37 °C","reference: compound over DMSO, lower = stronger inhibition",median ratio,1.15
O=C(Nc1cccnn1)N1CCC(=Cc2cccc(Oc3ccc(C(F)(F)F)cn3)c2)CC1,"PTGER3 (Homo sapiens, UniProt P43115)","radioligand binding, inhibitor",,"50 µM, human, with: [3H]prostaglandin E2",,inhibition,44%
COc1ccc(N2C(=O)N(c3c(C)cccc3Cl)Cc3cnc(Nc4ccc(C5CCN(C)CC5)cc4OC)nc32)nc1,"CAMK2G (Homo sapiens, UniProt Q13555)",kinase activity,,0.5 µM,,inhibition,9%
[2H]c1c([2H])c([C@]2([2H])CCCN2C(=O)C(C)(C)Oc2ccc3cn[nH]c3c2)c([2H])c([2H])c1C([2H])([2H])[2H],"SRPK1 (Homo sapiens, UniProt Q96SB4)",KINOMEscan,,1 µM,reference: DMSO control,remaining binding,100%
O=C(Nc1cnccc1Cl)N1CCN(Cc2ccc3c(c2)OC(F)(F)O3)CC1,"CHUK (Homo sapiens, UniProt O15111)","enzyme activity, inhibitor",,50 µM,,inhibition,-3%
CN1CCN(c2cc(-c3ccncc3)c(-c3ccc4ccccc4c3)nn2)CC1,"LTB4R (Homo sapiens, UniProt Q15722)","agonist, FLIPR",,12.5 µM,,activation,-1.5%

# Some of these lines once more:
Structure (SMILES),target,assay,test system,setting,how to read,endpoint,value
O=C(c1ccc(Cl)cc1)N1CCN2C(=O)N(OC(=O)N3CCOc4ccccc43)C(=O)C2C1 (centres unmarked),"Carboxylesterase 3 (CES3, Homo sapiens, UniProt Q6UWW8)","enzyme activity, inhibitor, MS-based ABPP",SW-620 in situ,"10 µM, 2 h, 37 °C","reference: compound over DMSO, lower = stronger inhibition",median ratio,1.15
